# Assay results pooled from the literature.
# Compare with care: the assays were run in different laboratories. “And” joins repeats or separate records; there may be more than shown. Numbers after ± are the reported error.
# HRH1: Histamine H1 receptor (HRH1, Homo sapiens, UniProt P35367)
# UniProt P35367, sequence (whole entry, looked up): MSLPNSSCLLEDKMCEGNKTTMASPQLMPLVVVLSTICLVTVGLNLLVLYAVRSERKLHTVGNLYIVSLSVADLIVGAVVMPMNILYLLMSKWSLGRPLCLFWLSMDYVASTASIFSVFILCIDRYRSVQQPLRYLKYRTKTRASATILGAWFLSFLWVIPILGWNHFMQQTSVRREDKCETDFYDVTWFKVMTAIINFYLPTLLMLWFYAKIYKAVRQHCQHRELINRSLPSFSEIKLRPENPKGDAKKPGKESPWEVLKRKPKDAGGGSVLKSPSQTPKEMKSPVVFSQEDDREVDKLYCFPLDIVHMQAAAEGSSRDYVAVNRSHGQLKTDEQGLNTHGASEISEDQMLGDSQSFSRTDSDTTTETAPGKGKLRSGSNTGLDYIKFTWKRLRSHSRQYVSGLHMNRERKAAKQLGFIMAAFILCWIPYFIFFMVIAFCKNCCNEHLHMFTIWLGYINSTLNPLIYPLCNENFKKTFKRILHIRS
# MSP: Male-specific submandibular salivary gland protein (MSP, Mesocricetus auratus, UniProt Q9QXU1)
# UniProt Q9QXU1, sequence (whole entry, looked up): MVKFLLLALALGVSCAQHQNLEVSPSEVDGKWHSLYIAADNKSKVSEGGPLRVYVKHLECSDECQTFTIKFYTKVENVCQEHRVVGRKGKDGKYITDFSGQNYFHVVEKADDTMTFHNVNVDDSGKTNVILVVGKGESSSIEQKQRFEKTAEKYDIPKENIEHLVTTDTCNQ
# P2RY1: P2Y purinoceptor 1 (P2RY1, Homo sapiens, UniProt P47900)
# UniProt P47900, sequence (whole entry, looked up): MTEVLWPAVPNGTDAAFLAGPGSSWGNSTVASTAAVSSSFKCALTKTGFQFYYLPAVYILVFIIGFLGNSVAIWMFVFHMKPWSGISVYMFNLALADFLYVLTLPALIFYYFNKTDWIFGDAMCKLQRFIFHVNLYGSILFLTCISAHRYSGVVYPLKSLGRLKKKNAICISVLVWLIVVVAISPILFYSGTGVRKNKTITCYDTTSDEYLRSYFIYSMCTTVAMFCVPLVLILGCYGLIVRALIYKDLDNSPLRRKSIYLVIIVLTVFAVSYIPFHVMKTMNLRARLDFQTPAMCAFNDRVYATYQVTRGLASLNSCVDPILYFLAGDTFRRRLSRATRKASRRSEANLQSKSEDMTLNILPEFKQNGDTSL
# Cnr1: Cannabinoid receptor 1 (Cnr1, Rattus norvegicus, UniProt P20272)
# UniProt P20272, sequence (whole entry, looked up): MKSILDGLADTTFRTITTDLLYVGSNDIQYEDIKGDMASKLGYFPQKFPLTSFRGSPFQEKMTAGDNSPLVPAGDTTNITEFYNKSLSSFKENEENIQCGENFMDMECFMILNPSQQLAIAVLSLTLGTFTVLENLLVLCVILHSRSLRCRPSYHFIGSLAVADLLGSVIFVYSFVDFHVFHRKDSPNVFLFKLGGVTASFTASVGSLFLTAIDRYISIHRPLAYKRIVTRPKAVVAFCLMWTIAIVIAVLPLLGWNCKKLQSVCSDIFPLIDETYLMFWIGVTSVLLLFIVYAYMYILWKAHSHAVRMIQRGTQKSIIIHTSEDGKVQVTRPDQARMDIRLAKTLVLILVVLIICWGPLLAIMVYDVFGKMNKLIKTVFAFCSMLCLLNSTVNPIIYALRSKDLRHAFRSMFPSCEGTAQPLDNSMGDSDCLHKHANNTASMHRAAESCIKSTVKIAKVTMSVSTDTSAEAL
# FAP: Prolyl endopeptidase FAP (FAP, Homo sapiens, UniProt Q12884)
# UniProt Q12884, sequence (whole entry, looked up): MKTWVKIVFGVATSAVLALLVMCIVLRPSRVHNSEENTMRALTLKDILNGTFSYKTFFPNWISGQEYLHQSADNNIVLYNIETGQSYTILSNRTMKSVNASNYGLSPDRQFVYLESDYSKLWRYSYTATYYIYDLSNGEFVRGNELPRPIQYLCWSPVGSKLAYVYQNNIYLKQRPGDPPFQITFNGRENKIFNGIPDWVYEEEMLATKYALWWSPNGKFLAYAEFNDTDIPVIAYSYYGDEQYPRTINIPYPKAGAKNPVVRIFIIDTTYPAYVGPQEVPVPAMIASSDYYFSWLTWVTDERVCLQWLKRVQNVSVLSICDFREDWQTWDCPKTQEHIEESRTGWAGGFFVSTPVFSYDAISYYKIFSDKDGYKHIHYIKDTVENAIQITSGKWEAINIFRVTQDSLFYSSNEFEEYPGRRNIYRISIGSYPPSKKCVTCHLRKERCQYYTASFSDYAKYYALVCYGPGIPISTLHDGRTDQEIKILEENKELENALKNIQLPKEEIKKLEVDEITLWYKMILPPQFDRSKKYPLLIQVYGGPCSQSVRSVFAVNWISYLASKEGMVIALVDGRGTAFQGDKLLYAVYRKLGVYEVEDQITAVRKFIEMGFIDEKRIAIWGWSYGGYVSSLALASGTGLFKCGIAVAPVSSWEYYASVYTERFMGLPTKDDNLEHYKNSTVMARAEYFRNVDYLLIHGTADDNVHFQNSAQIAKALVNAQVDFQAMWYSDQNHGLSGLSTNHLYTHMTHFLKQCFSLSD
# Na(+)/H(+) exchange regulatory cofactor NHE-RF2 PDZ domain 2: Na(+)/H(+) exchange regulatory cofactor NHE-RF2, PDZ domain 2 (Homo sapiens, UniProt Q15599)
# UniProt Q15599, sequence (whole entry, looked up): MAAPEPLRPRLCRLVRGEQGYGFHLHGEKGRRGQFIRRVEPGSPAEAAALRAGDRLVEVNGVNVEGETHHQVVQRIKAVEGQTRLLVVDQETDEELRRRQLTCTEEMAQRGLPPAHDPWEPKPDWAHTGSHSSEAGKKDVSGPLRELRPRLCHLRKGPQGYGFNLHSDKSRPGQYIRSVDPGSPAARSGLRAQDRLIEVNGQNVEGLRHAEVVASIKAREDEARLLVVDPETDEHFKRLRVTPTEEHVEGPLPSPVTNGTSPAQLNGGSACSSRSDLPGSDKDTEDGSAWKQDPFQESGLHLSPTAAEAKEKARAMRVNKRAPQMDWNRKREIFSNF
# Drd3: D(3) dopamine receptor (Drd3, Rattus norvegicus, UniProt P19020)
# UniProt P19020, sequence (whole entry, looked up): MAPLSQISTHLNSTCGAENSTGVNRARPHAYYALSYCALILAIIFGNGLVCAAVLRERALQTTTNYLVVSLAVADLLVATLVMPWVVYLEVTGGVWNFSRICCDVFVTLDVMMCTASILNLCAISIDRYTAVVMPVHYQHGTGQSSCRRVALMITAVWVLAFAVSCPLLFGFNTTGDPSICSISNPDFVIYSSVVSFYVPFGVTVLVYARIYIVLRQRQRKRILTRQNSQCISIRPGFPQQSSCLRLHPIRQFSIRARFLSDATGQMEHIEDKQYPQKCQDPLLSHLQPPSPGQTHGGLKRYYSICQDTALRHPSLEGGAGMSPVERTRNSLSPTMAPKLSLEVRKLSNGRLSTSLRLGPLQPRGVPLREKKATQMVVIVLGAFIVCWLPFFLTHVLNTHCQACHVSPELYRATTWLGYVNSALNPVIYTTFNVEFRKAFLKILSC
# UniProt P20813, sequence (whole entry, looked up): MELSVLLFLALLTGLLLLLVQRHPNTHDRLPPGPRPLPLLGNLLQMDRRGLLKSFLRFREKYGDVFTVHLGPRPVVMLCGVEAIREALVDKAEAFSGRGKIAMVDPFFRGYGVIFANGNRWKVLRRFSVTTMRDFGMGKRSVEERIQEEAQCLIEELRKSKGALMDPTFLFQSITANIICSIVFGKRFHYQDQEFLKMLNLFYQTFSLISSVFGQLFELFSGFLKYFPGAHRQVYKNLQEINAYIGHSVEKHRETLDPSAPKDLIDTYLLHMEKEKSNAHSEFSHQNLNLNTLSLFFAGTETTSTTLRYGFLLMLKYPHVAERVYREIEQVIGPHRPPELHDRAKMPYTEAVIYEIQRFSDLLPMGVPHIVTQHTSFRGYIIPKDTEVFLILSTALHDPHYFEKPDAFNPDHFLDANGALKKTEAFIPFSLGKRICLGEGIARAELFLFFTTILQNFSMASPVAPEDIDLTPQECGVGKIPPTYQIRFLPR
# UniProt Q04609, sequence (whole entry, looked up): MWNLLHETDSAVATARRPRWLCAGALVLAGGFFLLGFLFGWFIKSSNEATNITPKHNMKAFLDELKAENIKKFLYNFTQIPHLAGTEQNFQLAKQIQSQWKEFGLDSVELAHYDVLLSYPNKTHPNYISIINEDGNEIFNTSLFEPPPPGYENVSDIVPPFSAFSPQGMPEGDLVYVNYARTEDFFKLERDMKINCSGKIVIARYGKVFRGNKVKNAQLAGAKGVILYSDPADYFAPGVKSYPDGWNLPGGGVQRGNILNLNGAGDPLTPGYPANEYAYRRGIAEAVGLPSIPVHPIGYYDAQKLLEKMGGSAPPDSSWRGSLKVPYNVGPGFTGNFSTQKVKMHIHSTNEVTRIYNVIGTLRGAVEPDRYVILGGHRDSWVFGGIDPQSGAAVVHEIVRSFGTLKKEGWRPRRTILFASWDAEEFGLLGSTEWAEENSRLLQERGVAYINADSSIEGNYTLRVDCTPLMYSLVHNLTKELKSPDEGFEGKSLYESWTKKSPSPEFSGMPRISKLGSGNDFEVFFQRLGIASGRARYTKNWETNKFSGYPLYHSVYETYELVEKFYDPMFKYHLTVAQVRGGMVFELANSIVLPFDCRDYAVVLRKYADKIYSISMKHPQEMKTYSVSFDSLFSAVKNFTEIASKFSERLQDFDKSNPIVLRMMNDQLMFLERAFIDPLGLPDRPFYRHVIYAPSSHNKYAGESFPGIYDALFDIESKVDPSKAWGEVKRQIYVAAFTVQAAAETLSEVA
# UniProt Q16690, sequence (whole entry, looked up): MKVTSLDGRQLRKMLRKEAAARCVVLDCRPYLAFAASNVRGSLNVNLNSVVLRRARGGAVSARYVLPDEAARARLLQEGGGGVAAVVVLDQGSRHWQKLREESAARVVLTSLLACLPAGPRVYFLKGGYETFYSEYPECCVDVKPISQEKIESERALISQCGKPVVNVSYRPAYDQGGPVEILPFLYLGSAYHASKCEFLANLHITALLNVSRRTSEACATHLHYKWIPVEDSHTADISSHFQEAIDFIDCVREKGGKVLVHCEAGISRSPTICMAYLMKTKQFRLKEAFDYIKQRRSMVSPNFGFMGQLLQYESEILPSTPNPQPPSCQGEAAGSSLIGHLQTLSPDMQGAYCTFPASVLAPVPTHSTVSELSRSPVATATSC
SMILES,target,assay,system,setting,Ki
N=C(NCCCCCCCCCCCCN)NCCCc1cnc(N)s1,HRH1,"ligand displacement, radioligand",,cell membranes,302 nM
O=C(OCc1ccccc1)c1ccccc1,MSP,"binding, fluorescence displacement",,together with: 1-AMA 2 µM,1340 nM
NC(CC(=O)O)C(=O)NC(CC(=O)O)C(=O)NC(CS)C(=O)NC(CCCCNC(=O)CCCCCCC(=O)NCCCCC(NC(=O)NC(CCC(=O)O)C(=O)O)C(=O)O)C(=O)O (centres unmarked),"Glutamate carboxypeptidase 2 (FOLH1, Homo sapiens, UniProt Q04609)","enzyme activity, inhibitor, fluorescence",,lysate,2.73 nM
CC(C)=CCC/C(C)=C/CO,MSP,"binding, fluorescence displacement",,together with: 1-AMA 2 µM,630 nM
N=C(NCCCN)NCCCc1c[nH]cn1,HRH1,"ligand displacement, radioligand",,cell membranes,> 100000 nM
CNc1nc(C#CCCCCC(=O)O)nc2c1ncn2[C@H]1C[C@H](OP(=O)(O)O)[C@]2(COP(=O)(O)O)C[C@H]12,P2RY1,"ligand displacement, radioligand",,cell membranes,350 nM
CCCN(CC[C@]1(O)C[C@@H](NS(=O)(=O)c2cccc(Cl)c2)C1)[C@H]1CCc2nc(N)sc2C1 (relative stereo),"dopamine D1-like receptor, rat",radioligand binding,rat striatal membranes,together with: [3H]SCH23390,68000 ± 2300 nM
Cc1c(/N=N/c2cccc(Cl)c2Cl)nn(-c2ccc(Cl)cc2Cl)c1-c1ccc(Cl)cc1,Cnr1,radioligand binding,rat brain membranes,"trans isomer, 454 nm light, together with: [3H]CP55940 0.6 nM",521 ± 200 nM
CC(=O)N[C@@H](CCCNC(=N)N)C(=O)NCC(=O)NCC(=O)N1CCC[C@H]1B(O)O,FAP,"inhibitor, fluorogenic substrate",,together with: Tic-Pro-AFC,17 nM
CCCN(CC[C@]1(O)C[C@@H](NS(=O)(=O)c2ccccc2Cl)C1)[C@H]1CCc2nc(N)sc2C1 (relative stereo),"dopamine D1-like receptor, rat",radioligand binding,rat striatal membranes,together with: [3H]SCH23390,94900 ± 7620 nM
C[C@@H](O)[C@H](NC(=O)[C@H](CO)NC(=O)CNC(=O)[C@@H](N)CO)C(=O)N[C@@H](Cc1c[nH]cn1)C(=O)N[C@@H](Cc1ccccc1)C(=O)O,Na(+)/H(+) exchange regulatory cofactor NHE-RF2 PDZ domain 2,fluorescence polarization competition,,together with: FITC-labelled LPA2 peptide tracer,9100 ± 1000 nM
O=C(O)c1c(Cl)c(Cl)c(Cl)c(Cl)c1-c1c2cc(I)c(=O)c(I)c-2oc2c(I)c(O)c(I)cc12,"Dual specificity protein phosphatase 5 (Homo sapiens, UniProt Q16690)","enzyme activity, noncompetitive inhibitor",,"15 min, dark, two-Ki model",350 ± 40 nM
N=C(N)NCCCCNC(=N)NCCCc1c[nH]cn1,HRH1,"ligand displacement, radioligand",,cell membranes,> 31600 nM
CCCN(CC[C@]1(O)C[C@@H](NC(=O)c2cccc(-c3noc(C)n3)c2)C1)[C@H]1CCc2nc(N)sc2C1 (relative stereo),"dopamine D1-like receptor, rat",radioligand binding,rat striatal membranes,together with: [3H]SCH23390,15000 ± 2920 nM
CNc1nc(C#CCCCCC(=O)OC)nc2c1ncn2[C@H]1C[C@H](OP(=O)(O)O)[C@]2(COP(=O)(O)O)C[C@H]12,P2RY1,"ligand displacement, radioligand",,cell membranes,649 nM
CCCN(CCC1(O)CC(NC(=O)c2ccccc2Cl)C1)[C@H]1CCc2nc(N)sc2C1 (stereo in doubt),Drd3,"ligand displacement, radioligand",,cell membranes,0.62 nM
COc1cccc(/C=N/Nc2cc(C)nc3cc4c(cc23)OCO4)c1,"DNA repair nuclease/redox regulator APEX1 (APEX1, Homo sapiens, UniProt P27695)","enzyme activity, inhibitor",,,220 nM
CC[C@H](C(=O)O)[C@H]1CCN[C@@H]1C(=O)O,"NMDA receptor, rat",binding,cortical synaptosomes,together with: [3H]-CGP 39653,13000 nM
CCCN(CCC1(O)CC(NC(=O)c2ccc(F)c(Cl)c2)C1)[C@H]1CCc2nc(N)sc2C1 (stereo in doubt),"dopamine D1-like receptor, rat",radioligand binding,rat striatal membranes,together with: [3H]SCH23390,28200 ± 5310 nM
O=C(O)Cc1cn(C[C@H](NC(=O)Cc2cccs2)B(O)O)nn1,"Beta-lactamase ADC-7 (Acinetobacter baumannii, UniProt Q6DRA1)",inhibitor,,"5 min preincubation, pH 7.4, room temperature, together with: nitrocefin",115 ± 2 nM
CC(=O)N(CCCP(=O)(O)O)OCc1ccc(-c2ccccc2)cc1,"1-deoxy-D-xylulose 5-phosphate reductoisomerase, apicoplastic (DXR, Plasmodium falciparum, UniProt O96693)",inhibitor,,"versus NADPH, together with: NADPH varied 6-30 µM, DXP 144 µM",440 nM
CCCN(CCC1(O)CC(NC(=O)c2ccc(Cl)cc2)C1)[C@H]1CCc2nc(N)sc2C1 (stereo in doubt),Drd3,"ligand displacement, radioligand",,cell membranes,1.6 nM
CC(C)[C@H](NC(=O)[C@H](Cc1c[nH]c2ccccc12)NC(=O)[C@@H](NC(=O)[C@H](CCC(=O)O)NC(=O)[C@H](Cc1ccccc1)NC(=O)[C@@H](N)CC(=O)O)[C@@H](C)O)C(=O)O,Na(+)/H(+) exchange regulatory cofactor NHE-RF2 PDZ domain 2,fluorescence polarization competition,,together with: FITC-labelled LPA2 peptide tracer,5400 ± 1200 nM
COc1nccnc1CC(C)C,MSP,"binding, fluorescence displacement",,together with: 1-AMA 2 µM,220 nM
CCCN(CC[C@]1(O)C[C@@H](NS(=O)(=O)c2ccc(F)cc2)C1)[C@H]1CCc2nc(N)sc2C1 (relative stereo),"dopamine D1-like receptor, rat",radioligand binding,rat striatal membranes,together with: [3H]SCH23390,102000 ± 5390 nM
CCC(C)n1ncn(-c2ccc(N3CCN(c4ccc(OCC5COC(Cn6cncn6)(c6ccc(Cl)cc6Cl)O5)cc4)CC3)cc2)c1=O (centres unmarked),"Cytochrome P450 2B6 (CYP2B6, Homo sapiens, UniProt P20813)","enzyme activity, competitive inhibitor",reconstituted system,"5 min, pH 7.4, together with: 7-MFC",1420 nM and 1340 nM and 1140 nM
CCCCCCN1C(=O)C(O)=C(C(=O)c2ccc(C)cc2)C1c1ccc(OC)cc1OC (centres unmarked),"fMet-Leu-Phe receptor (FPR1, Homo sapiens, UniProt P21462)",ligand displacement in cells,,,< 2000 nM
CC1(C)C=C(C(=O)OC(C)(C)C)C(=O)CC1,"Mitogen-activated protein kinase 14 (MAPK14, Homo sapiens, UniProt Q16539)","ligand displacement, FP",,,19000 nM
O=C(Oc1cc(O)cc2c1C[C@@H](OC(=O)c1cc(O)c(O)c(O)c1)[C@@H](c1cc(O)c(O)c(O)c1)O2)c1cc(O)c(O)c(O)c1,"Ephrin type-A receptor 4 (Epha4, Mus musculus, UniProt Q03137)","ephrin-A5 binding, inhibitor, ELISA",,together with: ephrin-A5,~10000 nM
O=P(O)(O)OC[C@H]1N[C@H](COP(=O)(O)O)[C@@H](O)[C@@H]1O,"Orotate phosphoribosyltransferase (Plasmodium falciparum, UniProt Q8I3Y0)","enzyme activity, inhibitor, absorbance",,pH 8,39000 nM
Cc1c(C(=O)NCc2ccc(/N=N/c3ccc4c(c3)COC4)cc2)nn(-c2ccc(Cl)cc2Cl)c1-c1ccc(Cl)cc1,Cnr1,radioligand binding,rat brain membranes,"trans isomer, 454 nm light, together with: [3H]CP55940 0.6 nM",602 ± 416 nM
CC(C)C[C@H](NC(=O)[C@H](CCC(N)=O)NC(=O)[C@H](CCCNC(=N)N)NC(=O)[C@@H](N)Cc1ccccc1)C(=O)N[C@H](C(=O)N[C@@H](CO)C(=O)NCC(=O)N1CCCC[C@H]1C(=O)N[C@@H](CC(N)=O)C(=O)N[C@@H](CCC(N)=O)C(=O)N[C@@H](CCC(=O)O)C(=O)N[C@@H](CCC(N)=O)C(=O)N[C@H](C(=O)O)C(C)C)[C@@H](C)O,FAP,"enzyme activity, inhibitor, fluorescence",,pH 7.5,14000 nM
CCCN(CCC1(O)CC(NC(=O)c2ccccc2F)C1)[C@H]1CCc2nc(N)sc2C1 (stereo in doubt),Drd3,"ligand displacement, radioligand",,cell membranes,0.46 nM
O=C(O)CCC(C(=O)O)[C@@H]1CCN[C@H]1C(=O)O (relative stereo),"NMDA receptor, rat",binding,cortical synaptosomes,together with: [3H]-CGP 39653,53000 nM
N=C(N)NCCCCCCCCNC(=N)NCCCc1cnc(N)s1,HRH1,"ligand displacement, radioligand",,cell membranes,263 nM

# Some of these lines once more:
SMILES,target,assay,system,setting,Ki
CC(C)=CCC/C(C)=C/CO,MSP,"binding, fluorescence displacement",,together with: 1-AMA 2 µM,630 nM
O=C(OCc1ccccc1)c1ccccc1,MSP,"binding, fluorescence displacement",,together with: 1-AMA 2 µM,1340 nM
CNc1nc(C#CCCCCC(=O)O)nc2c1ncn2[C@H]1C[C@H](OP(=O)(O)O)[C@]2(COP(=O)(O)O)C[C@H]12,P2RY1,"ligand displacement, radioligand",,cell membranes,350 nM
